Published values collected from several papers.
A part holds a random share of what one study measured. “And” joins repeats or separate records; there may be more than shown.
UniProt P31751, sequence (whole entry, looked up): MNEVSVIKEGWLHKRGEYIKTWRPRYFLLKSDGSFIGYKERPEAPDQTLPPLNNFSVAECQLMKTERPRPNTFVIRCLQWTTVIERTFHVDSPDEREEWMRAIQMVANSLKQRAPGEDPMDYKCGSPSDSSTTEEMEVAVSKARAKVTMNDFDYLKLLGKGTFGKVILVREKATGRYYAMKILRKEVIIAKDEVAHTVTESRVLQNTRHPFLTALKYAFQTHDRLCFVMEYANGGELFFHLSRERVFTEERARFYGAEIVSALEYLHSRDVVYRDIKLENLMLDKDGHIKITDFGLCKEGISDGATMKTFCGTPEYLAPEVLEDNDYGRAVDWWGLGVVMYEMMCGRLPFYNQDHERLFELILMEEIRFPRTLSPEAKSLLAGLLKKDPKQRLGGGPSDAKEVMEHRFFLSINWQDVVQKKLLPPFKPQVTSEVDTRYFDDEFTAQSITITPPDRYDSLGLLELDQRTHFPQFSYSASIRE
UniProt P04629, sequence (whole entry, looked up): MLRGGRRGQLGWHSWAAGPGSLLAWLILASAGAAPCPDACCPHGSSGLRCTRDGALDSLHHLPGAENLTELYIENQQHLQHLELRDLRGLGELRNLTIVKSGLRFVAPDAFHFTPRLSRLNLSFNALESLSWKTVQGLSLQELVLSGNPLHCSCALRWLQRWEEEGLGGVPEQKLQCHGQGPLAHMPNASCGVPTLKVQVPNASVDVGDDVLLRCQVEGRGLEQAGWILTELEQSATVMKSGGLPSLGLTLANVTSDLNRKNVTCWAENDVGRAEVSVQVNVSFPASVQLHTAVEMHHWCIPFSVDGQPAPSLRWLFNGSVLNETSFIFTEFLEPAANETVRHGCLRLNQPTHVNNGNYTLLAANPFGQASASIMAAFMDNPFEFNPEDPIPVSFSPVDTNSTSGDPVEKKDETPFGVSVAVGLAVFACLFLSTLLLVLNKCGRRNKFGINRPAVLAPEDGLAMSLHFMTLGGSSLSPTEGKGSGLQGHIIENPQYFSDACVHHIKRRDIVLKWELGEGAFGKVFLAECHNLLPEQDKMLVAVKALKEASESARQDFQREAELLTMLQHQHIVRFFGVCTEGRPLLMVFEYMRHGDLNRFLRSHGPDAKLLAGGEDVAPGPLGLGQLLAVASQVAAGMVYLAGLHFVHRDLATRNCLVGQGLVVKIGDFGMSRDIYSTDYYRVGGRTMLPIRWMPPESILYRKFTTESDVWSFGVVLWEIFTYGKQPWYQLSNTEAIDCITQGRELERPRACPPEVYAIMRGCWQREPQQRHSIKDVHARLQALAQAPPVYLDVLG
UniProt Q9H0K1, sequence (whole entry, looked up): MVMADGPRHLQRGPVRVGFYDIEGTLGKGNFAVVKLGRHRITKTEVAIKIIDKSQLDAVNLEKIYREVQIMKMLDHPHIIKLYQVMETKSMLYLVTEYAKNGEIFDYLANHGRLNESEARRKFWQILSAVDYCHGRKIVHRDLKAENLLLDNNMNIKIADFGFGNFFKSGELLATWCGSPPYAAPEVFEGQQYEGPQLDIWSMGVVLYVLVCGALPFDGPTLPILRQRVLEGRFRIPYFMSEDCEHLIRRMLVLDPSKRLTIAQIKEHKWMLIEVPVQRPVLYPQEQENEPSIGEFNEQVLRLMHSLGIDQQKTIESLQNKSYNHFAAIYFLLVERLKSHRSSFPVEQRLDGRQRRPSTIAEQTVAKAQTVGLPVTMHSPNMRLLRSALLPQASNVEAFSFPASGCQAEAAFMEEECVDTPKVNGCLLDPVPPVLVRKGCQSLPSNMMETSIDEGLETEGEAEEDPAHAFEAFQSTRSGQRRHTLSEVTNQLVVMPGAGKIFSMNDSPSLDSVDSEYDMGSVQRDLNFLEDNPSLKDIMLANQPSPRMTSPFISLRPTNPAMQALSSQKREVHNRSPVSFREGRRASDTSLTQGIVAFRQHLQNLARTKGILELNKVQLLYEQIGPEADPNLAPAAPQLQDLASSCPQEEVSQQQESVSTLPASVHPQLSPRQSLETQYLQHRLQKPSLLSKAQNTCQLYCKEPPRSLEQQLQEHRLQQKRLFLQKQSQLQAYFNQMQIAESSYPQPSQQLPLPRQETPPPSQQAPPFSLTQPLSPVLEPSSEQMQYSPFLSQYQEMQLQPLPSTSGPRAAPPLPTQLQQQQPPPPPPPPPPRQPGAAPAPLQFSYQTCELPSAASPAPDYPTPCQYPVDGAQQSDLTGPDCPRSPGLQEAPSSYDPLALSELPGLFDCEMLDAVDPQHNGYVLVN
UniProt Q9P0L2, sequence (whole entry, looked up): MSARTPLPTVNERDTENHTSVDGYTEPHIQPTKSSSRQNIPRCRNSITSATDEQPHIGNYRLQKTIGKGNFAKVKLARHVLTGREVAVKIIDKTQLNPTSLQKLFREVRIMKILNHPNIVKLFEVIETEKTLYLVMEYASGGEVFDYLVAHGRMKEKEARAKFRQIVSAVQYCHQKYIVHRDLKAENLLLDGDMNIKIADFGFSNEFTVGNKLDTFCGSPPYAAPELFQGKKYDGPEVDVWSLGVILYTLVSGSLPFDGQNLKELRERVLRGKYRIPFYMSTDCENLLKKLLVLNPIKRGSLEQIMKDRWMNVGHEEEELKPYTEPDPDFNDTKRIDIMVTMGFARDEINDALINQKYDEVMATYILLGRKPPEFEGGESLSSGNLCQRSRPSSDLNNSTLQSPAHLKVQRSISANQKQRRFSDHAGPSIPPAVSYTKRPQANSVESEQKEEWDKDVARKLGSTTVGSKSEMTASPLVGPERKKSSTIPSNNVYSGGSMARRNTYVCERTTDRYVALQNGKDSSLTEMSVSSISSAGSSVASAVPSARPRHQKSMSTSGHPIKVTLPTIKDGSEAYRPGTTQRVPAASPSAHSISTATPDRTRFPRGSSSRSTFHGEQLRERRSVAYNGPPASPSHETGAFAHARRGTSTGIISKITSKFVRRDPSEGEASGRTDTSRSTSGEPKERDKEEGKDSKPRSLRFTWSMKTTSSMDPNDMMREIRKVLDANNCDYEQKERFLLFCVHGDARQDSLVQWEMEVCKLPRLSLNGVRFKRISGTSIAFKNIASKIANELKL
UniProt Q96GD4, sequence (whole entry, looked up): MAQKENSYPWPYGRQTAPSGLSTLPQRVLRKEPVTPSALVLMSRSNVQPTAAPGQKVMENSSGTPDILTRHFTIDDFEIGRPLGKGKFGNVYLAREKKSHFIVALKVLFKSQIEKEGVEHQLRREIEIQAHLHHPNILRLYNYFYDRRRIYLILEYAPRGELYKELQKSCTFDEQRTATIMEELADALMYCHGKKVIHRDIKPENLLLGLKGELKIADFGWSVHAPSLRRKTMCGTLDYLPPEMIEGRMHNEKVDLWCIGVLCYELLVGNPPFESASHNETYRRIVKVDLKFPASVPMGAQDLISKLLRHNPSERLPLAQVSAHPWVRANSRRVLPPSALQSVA

Block 1
SMILES: C[C@@H]1CN(c2ccc(-c3cc(C(=O)NCCOCCOCCOCCOCCNC(=O)/C=C/c4[nH]cc(C(=O)N[C@@H](CC(N)=O)c5ccc(F)c(Cl)c5)c4-c4ccc(Cl)cc4F)ccc3F)cc2NC(=O)c2c[nH]c(=O)cc2C(F)(F)F)C[C@H](C)N1C
Effect on: thermal unfolding
Technique: differential scanning fluorimetry
Concentration: 5.5 µM
Direction: higher = more unfolded
Endpoint: SYPRO Orange fluorescence
WDR5: WD repeat-containing protein 5 (WDR5, Homo sapiens, UniProt P61964)
DCAF1: DDB1- and CUL4-associated factor 1 (DCAF1, Homo sapiens, UniProt Q9Y4B6)
UniProt Q9Y4B6, sequence (whole entry, looked up): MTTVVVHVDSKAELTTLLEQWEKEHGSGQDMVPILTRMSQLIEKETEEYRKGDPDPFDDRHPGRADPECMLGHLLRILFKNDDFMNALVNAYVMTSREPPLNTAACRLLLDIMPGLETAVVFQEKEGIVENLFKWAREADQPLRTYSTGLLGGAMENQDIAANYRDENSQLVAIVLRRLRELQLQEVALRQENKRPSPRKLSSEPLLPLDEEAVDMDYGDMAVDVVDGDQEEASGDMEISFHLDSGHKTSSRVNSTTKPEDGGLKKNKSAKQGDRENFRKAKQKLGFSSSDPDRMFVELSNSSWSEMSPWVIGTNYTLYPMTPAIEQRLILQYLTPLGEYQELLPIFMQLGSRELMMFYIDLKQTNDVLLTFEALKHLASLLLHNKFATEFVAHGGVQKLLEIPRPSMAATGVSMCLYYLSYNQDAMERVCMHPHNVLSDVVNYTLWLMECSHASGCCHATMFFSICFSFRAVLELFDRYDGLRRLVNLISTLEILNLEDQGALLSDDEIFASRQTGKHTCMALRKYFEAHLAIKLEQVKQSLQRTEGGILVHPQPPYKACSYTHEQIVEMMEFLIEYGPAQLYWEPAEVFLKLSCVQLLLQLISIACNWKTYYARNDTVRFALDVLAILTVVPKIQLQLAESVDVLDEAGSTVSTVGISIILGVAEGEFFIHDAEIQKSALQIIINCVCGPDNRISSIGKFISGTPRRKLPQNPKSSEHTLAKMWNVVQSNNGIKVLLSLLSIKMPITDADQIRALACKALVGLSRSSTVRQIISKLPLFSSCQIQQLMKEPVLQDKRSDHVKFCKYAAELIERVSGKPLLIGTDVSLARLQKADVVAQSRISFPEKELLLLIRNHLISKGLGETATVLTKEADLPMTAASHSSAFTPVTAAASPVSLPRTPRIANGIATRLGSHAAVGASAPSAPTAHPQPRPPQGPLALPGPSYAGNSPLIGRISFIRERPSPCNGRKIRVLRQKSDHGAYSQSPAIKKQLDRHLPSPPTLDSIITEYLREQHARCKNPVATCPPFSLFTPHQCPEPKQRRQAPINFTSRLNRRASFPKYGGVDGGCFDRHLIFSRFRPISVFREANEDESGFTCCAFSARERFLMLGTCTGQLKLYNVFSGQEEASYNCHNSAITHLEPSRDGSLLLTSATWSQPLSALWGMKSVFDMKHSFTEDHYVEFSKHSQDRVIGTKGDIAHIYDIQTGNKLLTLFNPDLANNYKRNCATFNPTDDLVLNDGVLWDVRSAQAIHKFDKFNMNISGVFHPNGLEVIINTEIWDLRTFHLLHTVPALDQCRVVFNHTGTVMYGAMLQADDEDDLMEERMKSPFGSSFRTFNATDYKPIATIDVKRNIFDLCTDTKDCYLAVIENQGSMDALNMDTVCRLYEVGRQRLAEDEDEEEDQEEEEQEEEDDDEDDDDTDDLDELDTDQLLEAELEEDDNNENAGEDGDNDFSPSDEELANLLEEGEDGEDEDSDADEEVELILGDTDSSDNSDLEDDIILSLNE
WDR5; 81.41 °C: 44400 a.u.
DCAF1; 44.6 °C: 12800 a.u.
WDR5; 61.81 °C: 15000 a.u.
WDR5; 36.4 °C: 13500 a.u.
DCAF1; 43.2 °C: 12500 a.u.
WDR5; 42.2 °C: 14900 a.u.
DCAF1; 91.61 °C: 33300 a.u.
DCAF1; 88.01 °C: 37000 a.u.

Block 2
Structure (SMILES): CN(C1COC1)C(C)(C)/C=C(\C#N)C(=O)N1CCC[C@H]1Cn1nc(-c2ccc(Oc3ccccc3)cc2F)c2c(N)ncnc21
Effect on: kinase activity
Endpoint: inhibition
NTRK1 (Homo sapiens, UniProt P04629); 1 µM: 5%
FGFR2 (Homo sapiens, UniProt P21802); 1 µM: 24%
SIK1 (Homo sapiens, UniProt P57059); 0.1 µM: 6%
NTRK3 (Homo sapiens, UniProt Q16288); 1 µM: 3%
PRKACA (Homo sapiens, UniProt P17612); 0.1 µM: -1%
AKT2 (Homo sapiens, UniProt P31751); 0.1 µM: 1%
Aurora kinase B (AURKB, Homo sapiens, UniProt Q96GD4); 1 µM: 4%
SPHK2 (Homo sapiens, UniProt Q9NRA0); 1 µM: -1%
MARK3 (Homo sapiens, UniProt P27448); 0.1 µM: 4%
PRKACB (Homo sapiens, UniProt P22694); 0.1 µM: 5%
SRPK2 (Homo sapiens, UniProt P78362); 1 µM: 7%
ROCK1 (Homo sapiens, UniProt Q13464); 0.1 µM: 1%
NEK6 (Homo sapiens, UniProt Q9HC98); 0.1 µM: 5%
RAF1 (Homo sapiens, UniProt P04049); 0.1 µM: -1%
ABL1 (Homo sapiens, UniProt P00519); 0.1 µM: -1%

Block 3
SMILES: Cc1ncsc1-c1ccc(C(CO)NC(=O)C2CC(O)CN2C(=O)C(C(C)C)n2cc(-c3ccc(COc4c(-c5c(C)c(F)cc6[nH]ncc56)c(C5CC5)cc5c(N6CC7CC6CN7)nc(OC6CCOCC6)nc45)cc3)nn2)cc1 (stereo not shown)
Effect on: KRAS-RAF interaction
Action: inhibitor
Technique: TR-FRET
Endpoint: inhibition
KRAS with RAF: GTPase KRas, with RAF (KRAS, Homo sapiens, UniProt P01116)
KRAS/VHL with RAF: KRAS/VHL, with RAF (Homo sapiens, UniProt P01116+P40337)
KRAS with RAF; 100 nM, binary, with: SOS-mediated nucleotide exchange: -6.77% and -3.1%
KRAS with RAF; 1 µM, binary, with: SOS-mediated nucleotide exchange: -0.247% and 3.02%
KRAS/VHL with RAF; 3 µM, ternary, KRAS wild type, with: VCB complex: 68.9% and 66.8%
KRAS/VHL with RAF; 10 µM, ternary, KRAS wild type, with: VCB complex: 78.4% and 81.8%
KRAS/VHL with RAF; 30 nM, ternary, KRAS wild type, with: VCB complex: 5.45% and 2.85%
KRAS with RAF; 300 nM, binary, with: SOS-mediated nucleotide exchange: -4.58% and -2.53%
KRAS with RAF; 10 nM, binary, with: SOS-mediated nucleotide exchange: -2.79% and -8.45%

Block 4
Compound: CC[C@@]1(c2cccc(C(F)(F)F)c2)C2=C(Nc3n[nH]cc31)[C@H](F)C(C)(C)CC2=O (single isomer, unassigned)
Concentration: 1 µM
Endpoint: remaining binding
MARK1 (Homo sapiens, UniProt Q9P0L2); binding, competition with immobilised ligand: 86%
SLK (Homo sapiens, UniProt Q9H2G2); kinase binding, KINOMEscan; reference: DMSO control: 100%
CSNK2A1 (Homo sapiens, UniProt P68400); binding, competition with immobilised ligand: 100%
EGFR (Homo sapiens, UniProt P00533, A750P/del747-749); binding, competition with immobilised ligand: 65%
ACVRL1 (Homo sapiens, UniProt P37023); binding, competition with immobilised ligand: 99%
SIK2 (Homo sapiens, UniProt Q9H0K1); binding, competition with immobilised ligand: 83%
PRKG1 (Homo sapiens, UniProt Q13976); kinase binding, KINOMEscan; reference: DMSO control: 100%
CDC42BPG (Homo sapiens, UniProt Q6DT37); KINOMEscan: 99%
MAP2K6 (Homo sapiens, UniProt P52564); kinase binding, KINOMEscan; reference: DMSO control: 89%
CAMK4 (Homo sapiens, UniProt Q16566); kinase binding, KINOMEscan; reference: DMSO control: 100%
TIE1 (Homo sapiens, UniProt P35590); binding, competition with immobilised ligand: 100%
MAP3K11 (Homo sapiens, UniProt Q16584); binding, competition with immobilised ligand: 100%
MKNK1 (Homo sapiens, UniProt Q9BUB5); kinase binding, KINOMEscan; reference: DMSO control: 100%
